Published values from different studies.
Parts stem from different laboratories: compare values within a part only. Several values in a cell are separate wells, animals, samples, runs or records.
Chain of UniProt P22607 (whole entry, looked up): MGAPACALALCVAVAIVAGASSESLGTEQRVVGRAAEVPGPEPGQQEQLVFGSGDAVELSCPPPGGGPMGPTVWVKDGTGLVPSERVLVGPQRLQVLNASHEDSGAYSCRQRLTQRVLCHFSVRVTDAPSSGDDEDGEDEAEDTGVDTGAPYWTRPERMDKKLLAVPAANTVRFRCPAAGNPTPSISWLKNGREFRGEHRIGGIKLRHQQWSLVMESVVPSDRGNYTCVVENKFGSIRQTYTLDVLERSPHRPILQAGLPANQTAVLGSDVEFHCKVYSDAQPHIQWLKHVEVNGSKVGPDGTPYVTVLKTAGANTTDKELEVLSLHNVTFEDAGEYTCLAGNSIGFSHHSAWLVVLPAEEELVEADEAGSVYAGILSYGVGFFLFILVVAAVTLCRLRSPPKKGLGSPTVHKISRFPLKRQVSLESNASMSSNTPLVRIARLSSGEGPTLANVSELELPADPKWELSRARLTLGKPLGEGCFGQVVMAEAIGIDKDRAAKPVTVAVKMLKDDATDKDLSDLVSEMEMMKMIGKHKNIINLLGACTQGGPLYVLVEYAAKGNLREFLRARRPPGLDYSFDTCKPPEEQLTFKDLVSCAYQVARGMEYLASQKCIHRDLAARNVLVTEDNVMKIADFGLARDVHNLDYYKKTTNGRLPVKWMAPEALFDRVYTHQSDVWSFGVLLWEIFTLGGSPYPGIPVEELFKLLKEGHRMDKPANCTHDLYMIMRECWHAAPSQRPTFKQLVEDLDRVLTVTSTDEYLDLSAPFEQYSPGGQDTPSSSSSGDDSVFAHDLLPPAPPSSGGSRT
Chain of UniProt O15264 (whole entry, looked up): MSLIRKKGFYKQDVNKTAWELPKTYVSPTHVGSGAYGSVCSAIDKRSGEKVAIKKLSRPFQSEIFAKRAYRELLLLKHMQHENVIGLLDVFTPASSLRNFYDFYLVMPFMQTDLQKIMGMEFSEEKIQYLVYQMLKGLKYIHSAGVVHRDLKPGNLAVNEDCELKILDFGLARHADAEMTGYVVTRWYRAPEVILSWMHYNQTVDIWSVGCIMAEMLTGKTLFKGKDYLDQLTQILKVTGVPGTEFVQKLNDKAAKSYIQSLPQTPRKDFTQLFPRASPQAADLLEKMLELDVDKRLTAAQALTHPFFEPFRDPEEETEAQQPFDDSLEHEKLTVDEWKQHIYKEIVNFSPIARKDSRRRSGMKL
Chain of UniProt P11362 (whole entry, looked up): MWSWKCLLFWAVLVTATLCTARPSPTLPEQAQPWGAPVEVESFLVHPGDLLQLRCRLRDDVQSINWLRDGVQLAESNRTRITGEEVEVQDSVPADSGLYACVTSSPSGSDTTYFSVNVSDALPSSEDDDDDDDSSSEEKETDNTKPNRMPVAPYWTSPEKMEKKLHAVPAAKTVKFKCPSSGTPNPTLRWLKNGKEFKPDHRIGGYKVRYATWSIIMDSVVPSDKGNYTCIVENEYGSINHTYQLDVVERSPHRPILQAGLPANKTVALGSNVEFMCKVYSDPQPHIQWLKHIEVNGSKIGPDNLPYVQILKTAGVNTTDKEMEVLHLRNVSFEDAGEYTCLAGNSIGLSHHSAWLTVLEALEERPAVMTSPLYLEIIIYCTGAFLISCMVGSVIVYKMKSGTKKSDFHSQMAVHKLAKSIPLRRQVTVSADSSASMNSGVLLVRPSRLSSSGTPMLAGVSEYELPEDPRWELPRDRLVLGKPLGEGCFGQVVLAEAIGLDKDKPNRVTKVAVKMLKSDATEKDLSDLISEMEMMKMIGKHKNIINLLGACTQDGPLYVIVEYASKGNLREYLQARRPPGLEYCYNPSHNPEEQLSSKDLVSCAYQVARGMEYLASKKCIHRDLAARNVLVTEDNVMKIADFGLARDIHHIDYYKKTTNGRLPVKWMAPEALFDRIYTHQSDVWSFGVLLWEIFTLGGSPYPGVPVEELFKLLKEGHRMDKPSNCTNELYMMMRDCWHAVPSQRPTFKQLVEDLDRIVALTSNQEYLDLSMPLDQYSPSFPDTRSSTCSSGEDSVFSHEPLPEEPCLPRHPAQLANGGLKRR
Chain of UniProt Q99558 (whole entry, looked up): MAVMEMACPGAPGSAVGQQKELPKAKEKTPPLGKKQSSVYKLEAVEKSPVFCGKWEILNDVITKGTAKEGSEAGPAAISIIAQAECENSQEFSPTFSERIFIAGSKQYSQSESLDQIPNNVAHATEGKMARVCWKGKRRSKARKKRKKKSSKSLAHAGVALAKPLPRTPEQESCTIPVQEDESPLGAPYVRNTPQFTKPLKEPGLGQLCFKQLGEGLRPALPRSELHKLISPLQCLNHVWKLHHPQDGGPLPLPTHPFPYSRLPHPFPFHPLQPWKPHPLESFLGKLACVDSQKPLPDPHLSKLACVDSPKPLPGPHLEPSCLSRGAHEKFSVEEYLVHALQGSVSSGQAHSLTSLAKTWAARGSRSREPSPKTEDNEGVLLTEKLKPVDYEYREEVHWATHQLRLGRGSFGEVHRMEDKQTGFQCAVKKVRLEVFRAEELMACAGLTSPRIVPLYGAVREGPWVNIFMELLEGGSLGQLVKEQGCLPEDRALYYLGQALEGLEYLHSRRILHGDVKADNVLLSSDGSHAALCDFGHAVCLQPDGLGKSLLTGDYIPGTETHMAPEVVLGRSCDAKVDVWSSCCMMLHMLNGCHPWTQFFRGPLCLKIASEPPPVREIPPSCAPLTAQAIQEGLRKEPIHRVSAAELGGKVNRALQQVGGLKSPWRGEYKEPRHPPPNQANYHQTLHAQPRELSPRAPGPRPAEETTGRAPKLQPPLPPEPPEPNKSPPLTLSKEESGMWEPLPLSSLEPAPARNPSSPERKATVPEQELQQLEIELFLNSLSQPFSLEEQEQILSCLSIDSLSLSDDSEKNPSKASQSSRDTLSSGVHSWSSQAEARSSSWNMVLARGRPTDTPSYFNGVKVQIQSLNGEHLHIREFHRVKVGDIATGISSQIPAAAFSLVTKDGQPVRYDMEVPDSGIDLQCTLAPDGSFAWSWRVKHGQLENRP
Chain of UniProt P06239 (whole entry, looked up): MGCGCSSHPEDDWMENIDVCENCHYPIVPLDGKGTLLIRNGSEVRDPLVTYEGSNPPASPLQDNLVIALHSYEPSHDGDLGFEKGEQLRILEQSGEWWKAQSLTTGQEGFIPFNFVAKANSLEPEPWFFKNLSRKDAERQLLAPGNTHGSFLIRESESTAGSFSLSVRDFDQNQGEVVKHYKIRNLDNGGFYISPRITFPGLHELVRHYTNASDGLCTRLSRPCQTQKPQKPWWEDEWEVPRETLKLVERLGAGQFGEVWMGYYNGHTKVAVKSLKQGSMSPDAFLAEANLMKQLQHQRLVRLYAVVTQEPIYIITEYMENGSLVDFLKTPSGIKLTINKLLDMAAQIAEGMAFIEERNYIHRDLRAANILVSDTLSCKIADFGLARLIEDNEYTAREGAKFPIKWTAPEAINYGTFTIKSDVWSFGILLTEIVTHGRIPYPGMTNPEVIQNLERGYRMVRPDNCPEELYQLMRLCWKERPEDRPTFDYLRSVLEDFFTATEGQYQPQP
Chain of UniProt P09619 (whole entry, looked up): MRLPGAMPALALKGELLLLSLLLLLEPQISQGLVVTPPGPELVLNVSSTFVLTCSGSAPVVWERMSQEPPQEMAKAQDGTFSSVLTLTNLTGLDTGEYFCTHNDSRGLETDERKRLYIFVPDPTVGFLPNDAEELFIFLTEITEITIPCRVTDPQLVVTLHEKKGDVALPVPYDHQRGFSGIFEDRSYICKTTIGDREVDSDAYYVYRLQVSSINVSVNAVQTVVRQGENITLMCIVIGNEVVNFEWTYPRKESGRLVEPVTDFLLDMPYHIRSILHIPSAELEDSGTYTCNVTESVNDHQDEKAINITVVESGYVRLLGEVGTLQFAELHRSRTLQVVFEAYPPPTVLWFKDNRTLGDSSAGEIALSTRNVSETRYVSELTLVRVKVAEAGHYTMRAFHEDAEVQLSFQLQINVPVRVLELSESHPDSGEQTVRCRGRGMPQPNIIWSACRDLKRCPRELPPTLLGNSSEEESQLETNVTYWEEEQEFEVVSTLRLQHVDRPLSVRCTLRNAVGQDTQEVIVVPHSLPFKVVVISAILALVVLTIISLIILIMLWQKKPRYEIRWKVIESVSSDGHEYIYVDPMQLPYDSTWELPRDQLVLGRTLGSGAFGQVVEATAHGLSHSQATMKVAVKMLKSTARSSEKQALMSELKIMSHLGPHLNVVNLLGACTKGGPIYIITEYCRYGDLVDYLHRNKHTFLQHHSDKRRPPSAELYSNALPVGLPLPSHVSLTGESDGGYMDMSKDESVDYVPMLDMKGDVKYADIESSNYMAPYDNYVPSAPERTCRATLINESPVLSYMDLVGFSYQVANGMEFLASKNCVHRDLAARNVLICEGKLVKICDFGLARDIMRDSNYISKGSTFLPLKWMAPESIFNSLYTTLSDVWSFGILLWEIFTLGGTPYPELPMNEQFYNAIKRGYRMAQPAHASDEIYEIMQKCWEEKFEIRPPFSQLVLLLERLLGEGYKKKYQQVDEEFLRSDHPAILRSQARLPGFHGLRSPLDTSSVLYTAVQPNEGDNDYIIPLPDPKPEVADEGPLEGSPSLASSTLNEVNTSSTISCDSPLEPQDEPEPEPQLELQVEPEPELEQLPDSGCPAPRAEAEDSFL
Chain of UniProt P36507 (whole entry, looked up): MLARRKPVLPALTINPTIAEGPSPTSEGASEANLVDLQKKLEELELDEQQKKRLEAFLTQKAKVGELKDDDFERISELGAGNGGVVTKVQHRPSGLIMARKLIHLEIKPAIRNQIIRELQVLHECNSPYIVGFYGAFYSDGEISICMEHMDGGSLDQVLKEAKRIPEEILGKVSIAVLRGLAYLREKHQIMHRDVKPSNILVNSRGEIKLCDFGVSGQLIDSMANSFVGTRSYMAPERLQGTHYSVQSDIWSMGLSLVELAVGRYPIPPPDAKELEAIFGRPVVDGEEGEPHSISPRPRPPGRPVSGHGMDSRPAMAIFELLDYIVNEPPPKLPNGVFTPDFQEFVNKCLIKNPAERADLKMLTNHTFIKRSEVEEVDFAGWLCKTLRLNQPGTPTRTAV

Block 1
SMILES: CN(C)CCCn1cc(C2=C(c3c[nH]c4ccccc34)C(=O)NC2=O)c2ccccc21
Read-out: enzyme activity
Mode: inhibitor
Concentration: 0.5 µM
Reference: control
Quantity: remaining activity
MST1R (Homo sapiens, UniProt Q04912): 109%
MERTK (Homo sapiens, UniProt Q12866): 92.2%
ARAF (Homo sapiens, UniProt P10398): 100%
FGFR1 (Homo sapiens, UniProt P11362): 74.1%
FRK (Homo sapiens, UniProt P42685): 92.3%
JAK3 (Homo sapiens, UniProt P52333): 81.5%
EPHA3 (Homo sapiens, UniProt P29320): 93%
ACVR1B (Homo sapiens, UniProt P36896): 106%
RPS6KA2 (Homo sapiens, UniProt Q15349): 1.4%
WEE1 (Homo sapiens, UniProt P30291): 101%
ULK2 (Homo sapiens, UniProt Q8IYT8): 145%
FGFR3 (Homo sapiens, UniProt P22607): 87.9%
LCK (Homo sapiens, UniProt P06239): 91.8%
MAP2K2 (Homo sapiens, UniProt P36507): 98.9%

Block 2
Compound: CC(C)CC(=O)N1CCc2nc(-c3ccc(Br)cc3)nc(N(C)Cc3ccccc3)c2C1
Read-out: cell-free assay
Technique: competition with immobilised ligand
Concentration: 0.1 µM
Quantity: remaining binding
MAP3K14 (Homo sapiens, UniProt Q99558): 100%
WNK2 (Homo sapiens, UniProt Q9Y3S1): 100%
MAPK13 (Homo sapiens, UniProt O15264): 100%
TRPM6 (Homo sapiens, UniProt Q9BX84): 100%
PTK6 (Homo sapiens, UniProt Q13882): 100%
PAK4 (Homo sapiens, UniProt O96013): 100%
PDGFRB (Homo sapiens, UniProt P09619): 100%

Block 3
Medium: 1,9-decadiene/PBS
pH: 7.4
Quantity: logD
CC(C)C[C@@H]1NC(=O)[C@H](C)NC(=O)[C@@H](CC(C)C)NC(=O)[C@H](C)NC(=O)[C@@H](CCC(=O)N2CCCC2)NC(=O)[C@H](CC(C)C)NC(=O)[C@@H](CC(C)C)NC1=O: -1.4
CC(C)C[C@@H]1NC(=O)[C@H](CC(C)C)NC(=O)[C@@H](C(C)C)NC(=O)[C@@H](C)NC(=O)[C@H](C(C)C)NC(=O)[C@H](Cc2cscn2)NC(=O)[C@H](C)NC1=O: -2.65
CC(C)C[C@@H]1NC(=O)[C@H](CC(C)C)NC(=O)[C@@H](C(C)C)NC(=O)[C@H](C(C)C)NC(=O)[C@H](C(C)C)NC(=O)[C@H](C)NC(=O)[C@H](C)NC1=O: -1.74
CC(C)C[C@@H]1NC(=O)[C@H](Cc2cscn2)NC(=O)[C@H](Cc2cscn2)NC(=O)[C@H](C)NC(=O)[C@@H](CCC(=O)N2CCCC2)NC(=O)[C@H](CC(C)C)NC(=O)[C@@H](CC(C)C)NC1=O: -2.44
CC(C)C[C@@H]1NC(=O)[C@H](C)NC(=O)[C@H](Cc2cscn2)NC(=O)[C@H](C)NC(=O)[C@@H](CCC(=O)N2CCCC2)NC(=O)[C@H](CC(C)C)NC(=O)[C@@H](CC(C)C)NC1=O: -2.86
CC(C)C[C@@H]1NC(=O)[C@H](C)NC(=O)[C@H](Cc2cscn2)NC(=O)[C@H](CCC(=O)N2CCCC2)NC(=O)[C@H](CC(C)C)NC(=O)[C@H](CC(C)C)NC(=O)[C@@H](C(C)C)NC1=O: -2.46
CC(C)C[C@@H]1NC(=O)[C@H](CC(C)C)NC(=O)[C@H](CC(C)C)NC(=O)[C@H](CC(C)C)NC(=O)[C@@H](Cc2cscn2)NC(=O)[C@H](Cc2cscn2)NC(=O)[C@H](CCC(=O)N2CCCC2)NC1=O: -1.4

Block 4
Compound: CC(C)C[C@@H]1NC(=O)[C@@H](N(C)C(=O)[C@H](CC2CCC2)NC(=O)[C@@H]2C[C@@H](F)CN2C(=O)C2(C(F)(F)F)CC(F)(F)C2)CCCCNC(=O)C2(CC2)NC(=O)[C@H](Cc2cc(Cl)ccc2Cl)N(C)C1=O
Quantity: cell count
HCC4006; Vi-Cell counting; 200 nM, 6 days; reference: DMSO: 0.516 and 0.594 and 0.45
A549; Vi-Cell counting; 20 nM, 6 days; reference: DMSO: 0.978 and 0.697 and 0.914
HCC4006; Vi-Cell counting; 600 nM, 6 days; reference: DMSO: 0.257 and 0.333 and 0.273
NCI-H446 sgCtrl; dose-response; 20 nM, 6 d; reference: DMSO-treated: 0.0431 and 0.0717 and 0.0845

For quick reference, copied from above (block 1):
JAK3 (Homo sapiens, UniProt P52333): 81.5%
FGFR3 (Homo sapiens, UniProt P22607): 87.9%
WEE1 (Homo sapiens, UniProt P30291): 101%
FGFR1 (Homo sapiens, UniProt P11362): 74.1%
